Results from different studies.
± gives the spread as reported.

SMILES | cell line | effect on | technique | time | CC50
CC1=CCC[C@H](C)[C@@]12CC[C@@H](C(C)(C)O)C2 | MDCK | cell growth or viability | MTT | 72 h | 181 µg/mL
COc1ccc(CN2C[C@H](O)[C@H](O)[C@@H]2CO)cc1 | BJ |  | MTS | 72 h | > 200 µM
Cc1cc(Oc2c(C(F)(F)F)ccn(Cc3n[nH]c(=O)n3C)c2=O)c2cccc(Cl)c2n1 | MT4 | cell growth or viability | MTT |  | 233 µM
COc1cc(CN2CCN(c3ccc(Cl)cc3)CC2)c2cc3[n+](cc2c1O)CCc1cc2c(cc1-3)OCO2 | MDCK | cell growth or viability | SRB | 48 h | 194 µg/mL
O=C(CCN(CCC(=O)NC(Cc1c[nH]c2ccccc12)C(=O)O)C(=O)C1CC(C(=O)N(CCC(=O)NC(Cc2c[nH]c3ccccc23)C(=O)O)CCC(=O)NC(Cc2c[nH]c3ccccc23)C(=O)O)CC(C(=O)N(CCC(=O)NC(Cc2c[nH]c3ccccc23)C(=O)O)CCC(=O)NC(Cc2c[nH]c3ccccc23)C(=O)O)C1)NC(Cc1c[nH]c2ccccc12)C(=O)O (stereo not drawn) | MT4 |  |  | 5 (unit not given) | > 100 µM
Cn1c(C(F)(F)F)c(-c2ccccc2)c(=O)n1-c1ccccc1 | MDCK |  | MTT | 72 h | 789 ± 57 µM
COc1cc(CN2CCN(c3ccccc3F)CC2)c2cc3[n+](cc2c1O)CCc1cc2c(cc1-3)OCO2 | MDCK | cell growth or viability | SRB | 48 h | 126 µg/mL
Cc1ncnc2c1c(C1=CCSCC1)cn2[C@@H]1O[C@H](CO)[C@@H](O)[C@H]1O | MRC-5 SV2 | cell growth or viability | resazurin | 72 h | > 64 µM
COc1ccc(Nc2c(C#N)cnc3ccc(Cl)cc23)cc1 | mouse primary embryonic cardiomyocytes |  | resazurin | 72 h | > 100 µM
C[N+](C)(CC(=O)Nc1cccc(C(F)(F)F)c1)CC(=O)Nc1cccc(C(F)(F)F)c1 | Huh-7 | cell growth or viability |  |  | 2.99 µM
COc1cc(CN2CCN(c3ccccc3Cl)CC2)c2cc3[n+](cc2c1O)CCc1cc2c(cc1-3)OCO2 | MDCK | cell growth or viability | SRB | 48 h | 148 µg/mL
Cc1ccccc1-c1nnn(C23CC4CC(CC(C4)C2)C3)n1 | MDCK |  | MTT | 72 h | > 300 µg/mL
